{"data": "Experimental data from different studies", "note": "Compare with care: the assays were run in different laboratories.", "UniProt P42336, sequence (whole entry, unmodified, looked up)": "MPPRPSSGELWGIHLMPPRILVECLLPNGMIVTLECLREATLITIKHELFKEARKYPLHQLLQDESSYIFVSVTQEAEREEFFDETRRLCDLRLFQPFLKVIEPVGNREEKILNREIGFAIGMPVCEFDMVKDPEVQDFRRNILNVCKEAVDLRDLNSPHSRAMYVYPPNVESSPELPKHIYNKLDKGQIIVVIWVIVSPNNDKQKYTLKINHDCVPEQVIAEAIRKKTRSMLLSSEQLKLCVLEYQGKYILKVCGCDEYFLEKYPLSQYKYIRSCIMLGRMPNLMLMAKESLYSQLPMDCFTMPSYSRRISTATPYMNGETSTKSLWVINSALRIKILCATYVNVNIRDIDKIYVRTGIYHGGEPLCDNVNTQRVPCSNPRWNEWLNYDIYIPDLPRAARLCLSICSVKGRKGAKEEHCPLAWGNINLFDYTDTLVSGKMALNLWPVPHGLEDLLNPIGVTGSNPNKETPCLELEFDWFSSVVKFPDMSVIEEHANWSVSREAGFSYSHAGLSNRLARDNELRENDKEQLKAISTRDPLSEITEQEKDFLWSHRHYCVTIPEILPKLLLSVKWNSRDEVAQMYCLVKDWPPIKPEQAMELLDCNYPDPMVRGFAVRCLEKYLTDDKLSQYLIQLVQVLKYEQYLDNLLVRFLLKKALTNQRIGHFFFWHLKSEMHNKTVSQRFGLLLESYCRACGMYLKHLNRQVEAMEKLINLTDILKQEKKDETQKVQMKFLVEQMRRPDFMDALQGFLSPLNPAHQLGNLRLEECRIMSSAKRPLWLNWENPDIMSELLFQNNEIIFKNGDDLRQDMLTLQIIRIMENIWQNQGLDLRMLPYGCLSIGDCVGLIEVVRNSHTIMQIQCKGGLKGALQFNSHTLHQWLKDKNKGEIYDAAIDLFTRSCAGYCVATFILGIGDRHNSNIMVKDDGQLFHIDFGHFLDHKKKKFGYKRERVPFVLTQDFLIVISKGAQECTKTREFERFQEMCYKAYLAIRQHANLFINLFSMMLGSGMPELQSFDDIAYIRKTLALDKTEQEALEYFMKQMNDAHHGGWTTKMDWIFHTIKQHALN"}
{"Compound": "CC(=O)c1cnc(N)nc1N1CC[C@H]1c1nn2ccc(Cl)c2c(=O)n1-c1ccccc1", "target": "Phosphatidylinositol 4,5-bisphosphate 3-kinase catalytic subunit alpha isoform (PIK3CA, Homo sapiens, UniProt P42336, H1047Y)", "assay": "binding, competition with immobilised ligand", "conditions": "10 µM", "measurement": "remaining binding", "result": "36%"}
{"Compound": "CN1CCN(Cc2ccc(-c3ccc(CO[C@H]4CCC[C@@H]4NC(=O)c4cc(-c5cnn(C)c5)cnc4N)cc3)cc2)CC1", "target": "Phosphatidylinositol 4,5-bisphosphate 3-kinase catalytic subunit alpha isoform, with p85 alpha (PIK3CA, Homo sapiens, UniProt P42336)", "assay": "SelectScreen kinase profiling", "conditions": "0.1 µM", "measurement": "inhibition", "result": "-11%"}
{"Compound": "O=c1c(-c2ccc(Cl)c(CN3CCOCC3)c2)coc2cc(O)ccc12", "target": "Phosphatidylinositol 4,5-bisphosphate 3-kinase catalytic subunit alpha isoform, with p85 (PIK3CA, Homo sapiens, UniProt P42336, H1047R)", "assay": "enzyme activity, inhibitor", "conditions": "1 µM", "measurement": "remaining activity", "result": "98%"}
{"Compound": "Nc1ncc2c(n1)-c1c([nH]c3ccc(C4=CCOCC4)cc13)CCC2", "target": "Phosphatidylinositol 4,5-bisphosphate 3-kinase catalytic subunit alpha isoform (PIK3CA, Homo sapiens, UniProt P42336, E545K)", "assay": "binding, competition with immobilised ligand", "conditions": "1 µM", "measurement": "remaining binding", "result": "89%"}
{"Compound": "Cc1nc2c(F)cc(-c3nc(Nc4ccc(CNC(=O)CCCCCCC(=O)NO)cc4)ncc3F)cc2n1C(C)C", "target": "Phosphatidylinositol 4,5-bisphosphate 3-kinase catalytic subunit alpha isoform, with p65 alpha (PIK3CA, Homo sapiens, UniProt P42336)", "assay": "enzyme activity", "conditions": "1 µM, p110α/p65α)(h human", "measurement": "inhibition", "result": "37%"}
{"Compound": "C=CC(=O)N1CCc2ccc(-n3c(=O)ccc4cnc5ccc(-c6cnn(C)c6)cc5c43)cc21", "target": "Phosphatidylinositol 4,5-bisphosphate 3-kinase catalytic subunit alpha isoform (PIK3CA, Homo sapiens, UniProt P42336, E542K)", "assay": "KINOMEscan", "conditions": "1 µM", "scale": "relative to: DMSO control", "measurement": "remaining binding", "result": "66%"}
{"Compound": "CCN1CCN(Cc2ccc(C(=O)Nc3ccc(C)c(NCc4cnc5[nH]ccc5c4OC)c3)cc2C(F)(F)F)CC1", "target": "Phosphatidylinositol 4,5-bisphosphate 3-kinase catalytic subunit alpha isoform (PIK3CA, Homo sapiens, UniProt P42336, I800L)", "assay": "binding, competition with immobilised ligand", "conditions": "1 µM", "measurement": "remaining binding", "result": "94%"}
{"Compound": "Cc1cnc2nc1Nc1cccc(c1)COC/C=C/COCc1cc(ccc1OCCN1CCOCC1)N2", "target": "Phosphatidylinositol 4,5-bisphosphate 3-kinase catalytic subunit alpha isoform (PIK3CA, Homo sapiens, UniProt P42336, H1047L)", "assay": "binding", "conditions": "0.1 µM", "measurement": "remaining binding", "result": "68%"}
{"Compound": "COc1ccc(O)cc1-c1c[nH]c2ncc(-c3cncc(C(=O)N(C)C)c3)cc12", "target": "Phosphatidylinositol 4,5-bisphosphate 3-kinase catalytic subunit alpha isoform (PIK3CA, Homo sapiens, UniProt P42336)", "assay": "binding, competition with immobilised ligand", "conditions": "0.2 µM", "measurement": "inhibition", "result": "9.08%"}
{"Compound": "Cc1ccc(-c2c(/C=C(\\C#N)C(=O)NC(C)C)n(CCCO)c3ncnc(N)c23)cc1", "target": "Phosphatidylinositol 4,5-bisphosphate 3-kinase catalytic subunit alpha isoform (PIK3CA, Homo sapiens, UniProt P42336, C420R)", "assay": "cell-free assay, competition with immobilised ligand", "conditions": "1 µM", "measurement": "remaining binding", "result": "100%"}
{"Compound": "CC(C)=CC1OC(C)(C)C2C=C3C(=O)C(Cl)=CC(O)C3C3C(O)C4OC4C(=O)C132 (centres unmarked)", "target": "Phosphatidylinositol 4,5-bisphosphate 3-kinase catalytic subunit alpha isoform (PIK3CA, Homo sapiens, UniProt P42336, Q546K)", "assay": "cell-free assay, competition with immobilised ligand", "conditions": "10 µM", "measurement": "remaining binding", "result": "64%"}
